Experimental data from different studies.
Each line is one published result; not all experiments were run side by side. Several values in a cell are separate wells, animals, samples, runs or records.
Target: Rho-associated protein kinase 2 (ROCK2, Homo sapiens, UniProt O75116)
Chain of UniProt O75116 (whole entry, looked up): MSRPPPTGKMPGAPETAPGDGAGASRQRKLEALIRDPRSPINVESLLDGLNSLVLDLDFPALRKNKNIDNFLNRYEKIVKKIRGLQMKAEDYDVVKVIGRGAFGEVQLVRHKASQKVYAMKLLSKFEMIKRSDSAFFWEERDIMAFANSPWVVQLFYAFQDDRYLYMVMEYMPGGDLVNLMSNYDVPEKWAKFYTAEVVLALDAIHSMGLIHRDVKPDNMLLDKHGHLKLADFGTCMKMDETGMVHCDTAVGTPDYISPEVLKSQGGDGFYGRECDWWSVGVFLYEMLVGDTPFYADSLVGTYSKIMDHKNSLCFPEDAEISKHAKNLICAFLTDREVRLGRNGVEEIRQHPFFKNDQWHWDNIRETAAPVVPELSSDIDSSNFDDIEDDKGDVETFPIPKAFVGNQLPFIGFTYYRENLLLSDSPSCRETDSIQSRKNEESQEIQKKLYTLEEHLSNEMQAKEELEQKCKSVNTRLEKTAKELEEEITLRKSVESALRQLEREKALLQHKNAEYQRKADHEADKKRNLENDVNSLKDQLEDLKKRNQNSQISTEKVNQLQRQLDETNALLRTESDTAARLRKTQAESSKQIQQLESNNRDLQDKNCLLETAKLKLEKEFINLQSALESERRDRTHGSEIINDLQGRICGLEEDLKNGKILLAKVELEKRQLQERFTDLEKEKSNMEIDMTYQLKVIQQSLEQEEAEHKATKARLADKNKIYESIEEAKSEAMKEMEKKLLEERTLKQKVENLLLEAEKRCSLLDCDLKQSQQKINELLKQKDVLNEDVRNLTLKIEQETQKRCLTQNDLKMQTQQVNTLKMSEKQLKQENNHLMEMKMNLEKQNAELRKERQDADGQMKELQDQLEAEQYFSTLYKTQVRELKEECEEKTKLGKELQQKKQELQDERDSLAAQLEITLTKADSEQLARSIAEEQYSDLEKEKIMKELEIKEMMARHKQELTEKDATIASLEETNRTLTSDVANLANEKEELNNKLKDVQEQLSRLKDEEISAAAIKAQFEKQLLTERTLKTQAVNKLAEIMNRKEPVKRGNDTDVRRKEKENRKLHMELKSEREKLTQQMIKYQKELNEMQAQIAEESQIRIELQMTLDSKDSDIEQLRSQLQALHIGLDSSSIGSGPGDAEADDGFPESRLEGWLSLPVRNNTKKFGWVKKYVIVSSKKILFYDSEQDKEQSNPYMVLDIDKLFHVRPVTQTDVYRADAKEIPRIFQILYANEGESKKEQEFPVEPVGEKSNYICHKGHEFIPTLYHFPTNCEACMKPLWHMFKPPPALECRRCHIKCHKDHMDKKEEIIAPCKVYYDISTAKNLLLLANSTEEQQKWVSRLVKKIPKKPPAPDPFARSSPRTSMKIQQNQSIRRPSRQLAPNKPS

O=C(Cc1ccc(OCc2ccccc2)cc1)NC1(C(=O)O)CCN(C(=O)c2ccc(-c3cccc(Cl)c3)cc2)CC1: “activity vs control” 109% (enzyme activity, inhibitor; 10 µM).
O=C=[N][Ru-4]123([n]4c5ccc(O)cc5c5c6c(c7cc(F)c[n+]1c7c54)C(=O)NC6=O)[S+]1CC[S+]2CC[S+]3CC1 (centres unmarked) has a remaining activity of 99% (enzyme activity; 100 nM, human enzyme, with: 10 µM ATP; relative to: untreated).
With C=CC(=O)Nc1cccc(-c2cnc3[nH]cc(C(=O)NC(C)(C)C)c3n2)c1 the inhibition was 41% (enzyme activity, inhibitor; 0.1 µM).
The remaining binding of C=C1CCCCCCCCCC(CO)C1=O (centres unmarked) is reported as 99% (cell-free assay, competition with immobilised ligand; 10 µM).
Cc1cccc(O[C@H]2CCC[C@@H](C(C)CNCc3ccncc3)C2)c1 (relative stereo) gave an inhibition of 7% (enzyme activity, inhibitor; 1 µM).
For NC(=O)C[C@H]1CCc2sc3ncnc(O[C@H]4CC[C@H](N5CCOCC5)CC4)c3c21, the inhibition was 6% (enzyme activity, inhibitor; 10 µM).
With CCN1CCN(Cc2ccc(C(=O)Nc3ccc(C)c(NCc4cnc5[nH]ccc5c4OC)c3)cc2C(F)(F)F)CC1 the remaining binding was 100% (binding, competition with immobilised ligand; 1 µM).
With Cc1ccc(-c2c(/C=C(\C#N)C(=O)NC(C)C)n(CCCO)c3ncnc(N)c23)cc1 the remaining binding was 100% (cell-free assay, competition with immobilised ligand; 1 µM).
COc1ccc(NC(=O)Nc2ccc3c(c2)C(=O)N(C(C)CO)CC(C)C(CN(C)Cc2ccc4c(c2)OCO4)O3)cc1 (centres unmarked) has a remaining activity of 101% (kinase activity, KinaseProfiler; 0.03 µM, species human; relative to: control).
The remaining binding of CNS(=O)(=O)Nc1nccc(Cc2c(C)c3ccc(Oc4ncccc4F)cc3oc2=O)c1F is reported as 70% (binding, competition with immobilised ligand; 10 µM).
Cc1cnc2nc1Nc1cccc(c1)COC/C=C/COCc1cc(ccc1OCCN1CCOCC1)N2 gave a remaining binding of 78% (binding, competition with immobilised ligand; 0.1 µM).
With Cc1ccc(C)c(-c2ccc3nc(NC(=O)C4CCCCC4)nn3c2)c1 the remaining activity was 92% (enzyme activity, Dundee kinase panel; 10 µM).
The remaining activity of COCC12C(=O)NC3C4(C(OC)CC1O)C1CC5(O)C(OC)C(O)C(OC(C)=O)(C1C5OC(=O)c1ccccc1)C3(O)C(OC)C24 (centres unmarked) is reported as 99% and 113% (kinase activity, inhibitor, ProQinase kinase profiling; 25 µM; relative to: control).
With COc1cc(Nc2nc(C)cc(-c3cnn4nc(OC)ccc34)n2)cc(C(F)(F)F)c1 the remaining binding was 100% (binding, competition with immobilised ligand; 1 µM).
With CN1CCN(Cc2ccc(-c3ccc(CO[C@H]4CCC[C@@H]4NC(=O)c4cc(-c5cnn(C)c5)cnc4N)cc3)cc2)CC1 the inhibition was 8% (enzyme activity, inhibitor; 0.1 µM).
For Cc1cccc(-c2ccc3nc(NC(=O)C4CCOCC4)nn3c2)c1, the remaining activity was 86% (enzyme activity, Dundee kinase panel; 10 µM).
With COc1c(OCCCN2CCOCC2)ccc2c1N=C(NC(=O)c1cnc(N)nc1)N1CCN=C21 the remaining activity was 96% (kinase activity, inhibitor; 1 µM; relative to: untreated control).
CC(C)=CC1OC(C)(C)C2C=C3C(=O)C(Cl)=CC(O)C3C3C(O)C4OC4C(=O)C132 (centres unmarked) gave a remaining binding of 74% (cell-free assay, competition with immobilised ligand; 10 µM).
The remaining activity of COC(=O)[C@@]1(C)C=C(C(=O)Nc2cccc(C(=O)Nc3ccc(Nc4nccc(-c5cccnc5)n4)c(C)c3)c2)C(=O)CC1 is reported as 92% (enzyme activity, inhibitor, radiometric; 1 µM).
For Nc1nc(Nc2ccccc2)sc1C(=O)c1ccccc1, the remaining activity was 42% (enzyme activity, inhibitor; 10 µM).
CNC(=O)C[C@H](Cc1ccc(C#N)cc1)NC(=O)c1cc(-c2ccc(CN[C@H](C)c3ccc(C)cc3)o2)ccc1Cl: “activity vs control” 98% (enzyme activity, inhibitor; 1 µM).
c1ccc2c(Nc3cc(C4CCC4)[nH]n3)nc(Nc3ccc4nc[nH]c4c3)nc2c1 gave a remaining activity of 75% (enzyme activity, inhibitor; 0.25 µM).
CN1CCN(Cc2ccc(NC(=O)c3cccc(C#Cc4cnc(N)c5ncccc45)c3)cc2C(F)(F)F)CC1 gave a remaining binding of 54% (cell-free assay, competition with immobilised ligand; 0.5 µM).

Repeated from above:
With COc1cc(Nc2nc(C)cc(-c3cnn4nc(OC)ccc34)n2)cc(C(F)(F)F)c1 the remaining binding was 100% (binding, competition with immobilised ligand; 1 µM).
With CN1CCN(Cc2ccc(-c3ccc(CO[C@H]4CCC[C@@H]4NC(=O)c4cc(-c5cnn(C)c5)cnc4N)cc3)cc2)CC1 the inhibition was 8% (enzyme activity, inhibitor; 0.1 µM).
For Cc1cccc(-c2ccc3nc(NC(=O)C4CCOCC4)nn3c2)c1, the remaining activity was 86% (enzyme activity, Dundee kinase panel; 10 µM).
